Published values from different studies.
Parts stem from different laboratories: compare values within a part only.

Study 1
Target: Interferon regulatory factor 7, full length, phosphomimetic (IRF7, Homo sapiens, UniProt Q92985, residues 1-503, S471D/S472D/S475D/S476D/S477D/S483D/S484D/S487D)
UniProt Q92985, sequence (whole entry, unmodified, looked up): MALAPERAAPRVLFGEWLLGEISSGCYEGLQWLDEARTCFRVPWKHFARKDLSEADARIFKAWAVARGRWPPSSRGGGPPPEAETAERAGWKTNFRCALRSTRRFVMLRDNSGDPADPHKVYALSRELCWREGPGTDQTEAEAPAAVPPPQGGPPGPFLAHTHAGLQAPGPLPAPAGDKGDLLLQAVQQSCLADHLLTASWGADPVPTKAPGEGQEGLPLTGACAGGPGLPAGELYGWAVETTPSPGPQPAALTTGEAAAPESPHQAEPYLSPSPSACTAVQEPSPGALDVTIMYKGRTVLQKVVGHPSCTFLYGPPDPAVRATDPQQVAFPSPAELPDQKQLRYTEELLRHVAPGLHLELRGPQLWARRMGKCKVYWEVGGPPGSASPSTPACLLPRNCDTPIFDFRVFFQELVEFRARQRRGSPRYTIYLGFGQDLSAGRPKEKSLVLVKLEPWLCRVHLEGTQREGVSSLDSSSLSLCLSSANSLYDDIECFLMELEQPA
Method: protein-binding microarray
Form: double-stranded DNA, one strand shown
Matrix: in vitro
Tested at: 2200 nM top
Setting: 60-bp whole probe
Together with: salmon DNA 0.4 mg/ml
Reference: random background probes
Reading: higher = stronger binding
Sequence | fitted relative affinity [z-score]
GCCTAGCACTCATTTTTTGGAATGTCACTGTGCTAGGTCTTGATTCGCTTGACGCTGCTG | 1.47
GCCTAGCACTTAGAATCCAGTTTCGATTAGTGCTAGGTCTTGATTCGCTTGACGCTGCTG | 5.94
GCCTAGCACCTAGAACTGGGGTTTCGATTAGTGCTAGTCTTGATTCGCTTGACGCTGCTG | 2.03

Study 2
Target: Histone acetyltransferase KAT6A, winged helix 2, GST fusion (KAT6A, Homo sapiens, UniProt Q92794, residues 85-181)
Method: protein binding microarray
Form: double-stranded DNA, one strand shown
Matrix: in vitro
Tested at: not given
Setting: 8-mer, flanks averaged, mean of 2 arrays, mostly near background
Reference: not given
Reading: higher = stronger binding
Target sequence (chain): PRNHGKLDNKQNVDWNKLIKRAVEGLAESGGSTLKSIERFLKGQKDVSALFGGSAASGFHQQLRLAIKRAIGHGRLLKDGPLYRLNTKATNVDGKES
Sequence | E-score
CCAGCCGC | 0.168
TCTACGAA | -0.0907
ATCAGAGC | 0.0464
AAATGTCT | -0.12

Study 3
Target: Transcription factor Sp1 (SP1, Homo sapiens, UniProt P08047, residues 1-785, full length assumed)
UniProt P08047, sequence (whole entry, looked up): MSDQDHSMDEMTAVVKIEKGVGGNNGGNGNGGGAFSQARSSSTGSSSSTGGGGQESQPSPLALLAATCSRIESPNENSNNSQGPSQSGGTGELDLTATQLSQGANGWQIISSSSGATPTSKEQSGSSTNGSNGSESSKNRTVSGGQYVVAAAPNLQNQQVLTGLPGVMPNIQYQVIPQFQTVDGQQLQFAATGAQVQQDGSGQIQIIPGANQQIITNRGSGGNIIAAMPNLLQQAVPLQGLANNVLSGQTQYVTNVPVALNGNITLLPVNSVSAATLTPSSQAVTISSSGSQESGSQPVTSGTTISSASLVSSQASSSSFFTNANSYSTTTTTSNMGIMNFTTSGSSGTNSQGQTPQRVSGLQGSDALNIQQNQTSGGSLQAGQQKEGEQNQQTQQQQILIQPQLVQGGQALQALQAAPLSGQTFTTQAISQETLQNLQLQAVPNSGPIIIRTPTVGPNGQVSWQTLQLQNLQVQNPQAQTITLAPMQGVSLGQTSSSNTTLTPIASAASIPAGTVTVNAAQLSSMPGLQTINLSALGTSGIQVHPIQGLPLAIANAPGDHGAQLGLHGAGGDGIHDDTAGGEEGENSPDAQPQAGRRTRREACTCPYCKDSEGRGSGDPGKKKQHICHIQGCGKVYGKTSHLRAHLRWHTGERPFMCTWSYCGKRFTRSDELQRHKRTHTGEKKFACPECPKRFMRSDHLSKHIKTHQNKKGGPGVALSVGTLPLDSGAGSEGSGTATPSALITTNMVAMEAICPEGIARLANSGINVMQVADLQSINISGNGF
Method: protein-binding microarray
Form: double-stranded DNA, one strand shown
Matrix: in vitro
Tested at: not given
Setting: k-mer, scored over probes, only values ≥0.25
Reading: higher = stronger binding
Sequence | E-score
GGGTGGTA | 0.311
ACCCATAC | 0.27
GGGCGGAC | 0.272
ACCTCCCC | 0.413

Further values, each from its own experiment
Molecule | target | assay | test system | conditions | how to read | measurement | result
PhoQ, residues 284 288 289 292 302 303 GNNTDL | PhoP, residues 12 14 15 18 19 FWNTL (Escherichia coli, UniProt P23836) | Sort-seq, measured: YFP reporter | E. coli | PhoQ-PhoP variant library, together with: 10 µM Mg2+ | reference: high Mg2+ state, higher = stronger signaling | fold induction | 4.8

A few entries again (study 1):
Sequence | fitted relative affinity [z-score]
GCCTAGCACTTAGAATCCAGTTTCGATTAGTGCTAGGTCTTGATTCGCTTGACGCTGCTG | 5.94
